Results gathered from unrelated publications.
Each line is one published result; not all experiments were run side by side. Values joined by “and” are separate records of one study, mostly repeats; a detail may differ. ± gives the spread as reported.
Cell line: A2780

| Compound | test | conditions | IC50 |
| --- | --- | --- | --- |
| C[C@@H]1CC[C@@H]([C@@](O)(CNCc2ccccc2F)COCc2ccccc2)[C@H](OCc2ccccc2)C1 | cell growth or viability, MTT | 72 h | 4 µM |
| CCCCCCCCCCCCCCCCNC(=O)[O][Pt]([Cl])([Cl])[O]C(=O)CCC(=O)O.N.N | cell viability, MTT | 48 h | 0.26 ± 0.04 µM |
| Cc1cc(C)c(N[C](NCc2ccc(N[C](Nc3c(C(C)C)cccc3C(C)C)=[Pd-]([Cl])([Cl])[C]#[N+]c3c(C(C)C)cccc3C(C)C)cc2)=[Au][Cl])c(C)c1 | cell growth or viability |  | > 100 µM |
| CC(C)=CCC1=C([O-])C(=O)c2ccccc2C1=O.CC(C)=CCC1=C([O-])C(=O)c2ccccc2C1=O.[Cu+2].c1ccc(-c2ccnc3c2ccc2c(-c4ccccc4)ccnc23)cc1 | cell viability, MTT | 24 h | ~0.6 µM and 0.53 µM |
| COc1ccc(CNC[C@@](O)(COCc2ccc(OC)cc2)[C@@H]2CC[C@@H](C)C[C@H]2OCc2ccc(OC)cc2)cc1 | cell growth or viability, MTT | 72 h | 1.5 µM |
| C#CCN(C(=O)OCc1ccc(C(=O)N(C)C)cc1)[c-]1cccc1.[Fe+2].c1cc[cH-]c1 | cell growth or viability, MTT | 48 h | 37.1 µM |
| C[C@@H]1CC[C@@H]([C@@](O)(CNCc2ccc(F)cc2)COCc2ccc(F)cc2)[C@H](OCc2ccc(F)cc2)C1 | cell growth or viability, MTT | 72 h | 1.4 µM |
| CC(C)c1cccc(C(C)C)c1[N+]#[C][Pd-2]([Cl])([Cl])[C]#[N+]c1c(C(C)C)cccc1C(C)C | cell growth or viability |  | > 100 µM |
| CC(=O)OC[C@]1(C)CCC[C@]2(CO)[C@@H]1CC[C@@]13C[C@@H](C[C@H](O)[C@H]12)[C@H](C)C3=O | cell growth or viability, MTT |  | > 20 µM |
| CC(C)c1cccc(C(C)C)c1-n1ccn(-c2c(C(C)C)cccc2C(C)C)c1=[Se].[Cl][Ag] | cell growth or viability, MTT | 72 h | 0.6 µM |
| COc1ccc(CNC[C@](O)(COCc2ccccc2)[C@@H]2CC[C@@H](C)C[C@H]2OCc2ccccc2)cc1 | cell growth or viability, MTT | 72 h | 2.5 µM |
| CC12CCC3c4ccc(OCCCOc5no[n+]([O-])c5S(=O)(=O)c5ccccc5)c(Br)c4CCC3C1CCC2O (stereo not drawn) | cell growth or viability, MTT | 48 h | 0.0286 µM |
| C1=CCC=C1.[Cl][Au-]1([Cl])[N+](=P(c2ccccc2)(c2ccccc2)[c-]2cccc2)Cc2cccc[n+]21.[Fe+2].[O-][Cl+3]([O-])([O-])[O-] | cell growth or viability, MTT | 74 h | 30.1 µM |
| Cc1cc(C)c([N+]#[C][Pt-]([Cl])([Cl])=[C](Nc2ccc(CN[C](NC(C)(C)C)=[Au][Cl])cc2)Nc2c(C)cc(C)cc2C)c(C)c1 | cell growth or viability |  | > 100 µM |
| c1ccc(-n2nc(-c3ccccn3)n[n+]2-c2ccccc2)cc1 | cell growth or viability, resazurin | 72 h | 74 µM |
| CC(C)c1cccc(C(C)C)c1N1CCN(c2c(C(C)C)cccc2C(C)C)C1=[Se].[Cl][Ag] | cell growth or viability, MTT | 72 h | 0.6 µM |
| Cc1c([O][Ru][Cl])c(=O)ccn1CCCCn1ccc(=O)c([O][Ru][Cl])c1C.Cc1ccc(C(C)C)cc1.Cc1ccc(C(C)C)cc1 | cell growth or viability, MTT | 96 h | 41 µM |

| Compound | test | conditions | IC50 |
| --- | --- | --- | --- |
| C[C@@H]1CC[C@@H]([C@@](O)(COCc2ccccc2)Cn2cnc3ccccc32)[C@H](OCc2ccccc2)C1 | cell growth or viability, MTT | 72 h | 5.3 µM |
| CC(C)c1cccc(C(C)C)c1-n1c(Cl)c(Cl)n(-c2c(C(C)C)cccc2C(C)C)c1=[Se].[Cl][Ag] | cell growth or viability, MTT | 72 h | 0.4 µM |
| C=C1C(=O)[C@@]23CC[C@@H]4[C@](C)(COC(C)=O)CCC[C@@]4(C)[C@@H]2[C@@H](O)C[C@@H]1C3 (single isomer, unassigned) | cell growth or viability, MTT |  | 2.4 µM |
| [Cl][Pd-2]1([Cl])[N+](=P(c2ccccc2)(c2ccccc2)c2ccccc2)Cc2cccc[n+]21 | cell growth or viability, MTT |  | 6 to 7 µM |
| Cc1c(C)n(-c2c(C(C)C)cccc2C(C)C)c(=[Se])n1-c1c(C(C)C)cccc1C(C)C.[Cl][Ag] | cell growth or viability, MTT | 72 h | 0.5 µM |
| CC(=O)OC[C@]1(C)CCC[C@]2(C)[C@@H]1CC[C@@]13C[C@@H](C[C@H](O)[C@H]12)[C@H](C)C3=O | cell growth or viability, MTT |  | > 20 µM |
| Cc1cc(C)c([N+]#[C][Pd-]([Cl])([Cl])=[C](Nc2cccc(CN[C](NC(C)(C)C)=[Au][Cl])c2)Nc2c(C)cc(C)cc2C)c(C)c1 | cell growth or viability |  | > 100 µM |
| C[N+]1(C)CC[NH2+][Pt-2]1([OH])([OH])([Cl])[Cl] | cell viability, EZ4U | 96 h | 50 ± 4 µM |
| CC(C)c1cccc(C(C)C)c1[N+]#[C][Pt-]([Cl])([Cl])=[C](Nc1cccc(CN[C](Nc2c(C(C)C)cccc2C(C)C)=[Au][Cl])c1)Nc1c(C(C)C)cccc1C(C)C | cell growth or viability |  | > 100 µM |
| C#CCN(C(=O)OCc1ccc(B2OC(C)(C)C(C)(C)O2)cc1)[c-]1cccc1.[Fe+2].c1cc[cH-]c1 | cell growth or viability, MTT | 48 h | 14.2 µM |
| CC(C)c1cccc(C(C)C)c1[N+]#[C][Pt-]([Cl])([Cl])=[C](Nc1cccc(CN[C](NC(C)(C)C)=[Au][Cl])c1)Nc1c(C(C)C)cccc1C(C)C | cell growth or viability |  | > 100 µM |
| CCCCCCCCC=CCCCCCCCC(=O)OCC1OC(n2ccc(N)nc2=O)C(F)(F)C1O (stereo not drawn) | cell growth or viability, SRB | 72 h | 0.0025 µM |
| Cc1cc(C)c(N=[C](NCc2cccc(N)c2)[AuH][Cl])c(C)c1 | cell growth or viability |  | > 100 µM |
| CC(C)=CCC1=C([O-])C(=O)c2ccccc2C1=O.CC(C)=CCC1=C([O-])C(=O)c2ccccc2C1=O.Cc1cc2cccnc2c2ncccc12.[Cu+2] | cell viability, MTT | 72 h | 0.31 ± 0.03 µM |
| Cc1cc(C)c([N+]#[C][Pt-]([Cl])([Cl])=[C](Nc2cccc(CN[C](Nc3c(C)cc(C)cc3C)=[Au][Cl])c2)Nc2c(C)cc(C)cc2C)c(C)c1 | cell growth or viability |  | > 100 µM |
| [Cl][Au-]1([Cl])[N+](=P(c2ccccc2)(c2ccccc2)C2C=CC=C2)Cc2cccc[n+]21.[Cl][Au-]1([Cl])[N+](=P(c2ccccc2)(c2ccccc2)C2C=CC=C2)Cc2cccc[n+]21.[Fe+2].[O-][Cl+3]([O-])([O-])[O-].[O-][Cl+3]([O-])([O-])[O-] | cell growth or viability, MTT | 74 h | 2.7 µM |
